Values quoted from earlier work as cited in several papers.
Each numbered part shows a few of the values that one paper quotes. ± marks the error that the study gave. Converted amounts (≈) assume the structure as drawn.

Set 1 — species: human
Compound	therapeutic concentration [nM]
COc1cc2c(cc1OC)C1CC(=O)C(CC(C)C)CN1CC2 (stereo not drawn)	0.99
COc1cc2c(cc1OC)[C@H]1C[C@@H](OC(=O)[C@@H](N)C(C)C)[C@H](CC(C)C)CN1CC2	2190
Cc1ccc(C(=O)c2cc(O)c(O)c([N+](=O)[O-])c2)cc1	21000

Set 2 — organism: Cryptosporidium parvum; technique: high-throughput screen; tested at: concentration not given
Structure (SMILES)	activity
N#Cc1ccc(C(c2ccc(C#N)cc2)n2cncn2)cc1	inactive
CC1(C)S[C@@H]2[C@H](NC(=O)[C@H](N)c3ccc(O)cc3)C(=O)N2[C@H]1C(=O)O	inactive
CCC(C)(C)N=C(NC#N)Nc1cccnc1	inactive
CCCN(CCC)S(=O)(=O)c1ccc(C(=O)O)cc1	inactive
CC(=O)[C@]1(O)Cc2c(O)c3c(c(O)c2[C@@H](O[C@H]2C[C@H](N)[C@H](O)[C@H](C)O2)C1)C(=O)c1ccccc1C3=O	inactive
C[C@]12CCC(=O)C=C1CC[C@@H]1[C@@H]2CC[C@@]2(C)[C@H]1CC[C@]2(O)C(=O)CO	inactive
C=C1/C(=C\C=C2/CCC[C@]3(C)[C@@H]([C@H](C)CCCC(C)(C)O)CC[C@@H]23)C[C@@H](O)C[C@@H]1O	inactive
COc1cc2nc(N3CCN(C(=O)C4CCCO4)CC3)nc(N)c2cc1OC (stereo not drawn)	inactive
CC(=O)CC(c1ccccc1)c1c(O)c2ccccc2oc1=O (stereo not drawn)	inactive
C#C[C@]1(O)CC[C@H]2[C@@H]3CCC4=CC(=O)CC[C@@H]4[C@H]3CC[C@@]21C	inactive
Nc1nc2c(ncn2COCCO)c(=O)[nH]1	inactive
CC(c1cc2ccccc2s1)N(O)C(N)=O (stereo not drawn)	inactive
O=C(O)Cc1ccccc1Nc1c(Cl)cccc1Cl	inactive
O=C1CCc2ccc(OCCCCN3CCN(c4cccc(Cl)c4Cl)CC3)cc2N1	inactive
Cc1onc(-c2c(Cl)cccc2Cl)c1C(=O)N[C@@H]1C(=O)N2[C@@H]1SC(C)(C)[C@@H]2C(=O)O	inactive
Cc1occc(=O)c1O	inactive
CC1COc2c(N3CCN(C)CC3)c(F)cc3c(=O)c(C(=O)O)cn1c23 (stereo not drawn)	inactive
CC(C)[C@H](N)C(=O)OCCOCn1cnc2c(=O)[nH]c(N)nc21	inactive
CS(=O)(=O)c1ccc(-c2cc(Br)sc2-c2ccc(F)cc2)cc1	inactive
Cl.O=C1[C@H]2CCCC[C@H]2C(=O)N1CCCCN1CCN(c2nsc3ccccc23)CC1	inactive
Cl.Nc1nc2ccc(OC(F)(F)F)cc2s1	inactive
COc1ccccc1OCC(O)COC(N)=O (stereo not drawn)	inactive
Nc1nc(=O)[nH]cc1F	inactive
O=C1c2c(O)ccc(O)c2C(=O)c2c(NCCNCCO)ccc(NCCNCCO)c21	inactive

Set 3 — Compound: CN(C)CC/C=C1/c2ccccc2Sc2ccc(Cl)cc21; cell line: MCF7; technique: microarray; tested at: concentration not given; relative to: DMSO
test	log2 fold change
item: UPP1 mRNA	1.1
item: TRAF5 mRNA	1.01
item: SLC7A11 mRNA	1.84

Mixed results
SMILES	tested on	test	system	setting	measurement	result
CC(=O)c1c(C)c2cnc(Nc3ccc(N4CCNCC4)cn3)nc2n(C2CCCC2)c1=O	human neutrophils	–	–	concentration not given, with: fMLF	cAMP level	no effect
CCCCNC(=O)NS(=O)(=O)c1ccc(C)cc1	–	–	liver microsomes 0.5 mg/mL	1 µM	CLint, scaled	0.122 L/h/kg
O=C(c1ccc(F)cc1)N1CC(COc2ccc(Br)cc2)(C(=O)O)C1	PTGER2 (human)	enzyme activity	–	–	IC50	1.3 µM
CCCCCCCCC/C(=C\C1=C(C)C(=O)C(OC)=C(OC)C1=O)C(=O)O	–	–	mouse laser-induced CNV model	oral, dose not given	lesion volume reduction	50%
C/C(=C\C(=O)OCCCCCCCCC(=O)O)C[C@@H]1OC[C@H](C/C=C/[C@@H](C)[C@H](C)O)[C@@H](O)[C@H]1O	Staphylococcus aureus	–	Newman	–	MIC	0.25 µM (≈ 0.121 µg/mL)
CC(C)CCC[C@@H](C)[C@H]1CC[C@H]2[C@@H]3CC=C4[C@@H](O)[C@@H](O)CC[C@]4(C)[C@H]3CC[C@]12C	–	–	human	–	plasma half-life	17 days
CN(C)CCCN1c2ccccc2Sc2ccc(Cl)cc21	–	–	human	–	clearance	0.738 L/h/kg
CN(C)C(=O)N[C@H]1CC[C@H](CCN2CCN(c3cccc(Cl)c3Cl)CC2)CC1	–	–	Japanese patients	6 mg once daily, Day 84	AUC(0-24 h)	0.358 µg·h/mL
O=S(=O)(NC1CCC(c2cc(F)ccc2F)(S(=O)(=O)c2ccc(Cl)cc2)CC1)C(F)(F)F (stereo not drawn)	SLC18A2	–	–	–	IC50	0.213 µM
C/C(=C\C(=O)OCCCCCCCCC(=O)O)C[C@@H]1OC[C@](O)(C[C@@H]2O[C@H]2[C@@H](C)[C@H](C)O)[C@@H](O)[C@H]1O	Staphylococcus aureus	–	Newman	–	MIC	4 µM (≈ 2.07 µg/mL)
O=C(NCCCC1CCCCC1)c1ccc(CNC(=O)c2cnn(-c3ccccc3)c2C(F)(F)F)cc1	human MAPK14	cell-based	–	–	IC50	13 µM
[11CH3]n1cc(C2=C(c3ccc(Cl)cc3Cl)C(=O)NC2=O)c2ccccc21	–	PET	mice	–	initial brain uptake	2.5 SUV
CNC(=O)Nc1ccc2c(c1)C1(CC2)OC(=O)N(CC(=O)N(Cc2ccc(F)cc2)[C@@H](C)C(F)(F)F)C1=O (single isomer, unassigned)	EP300 and CREBBP	cell-based	–	–	IC50	> 10 µM
CC(C(=O)O)c1ccc(-c2ccccc2)c(F)c1 (stereo not drawn)	CYP2C9	substrate	–	–	Km	6 to 42 µM
O=C(C1CCCCC1)N1CC(=O)N2CCc3ccccc3[C@H]2C1	TRPM8 human	–	–	–	EC50	~20 µM
COc1ccc(-c2ocnc2C(=O)NCCCc2ccc([18F])nc2)cc1Cl	–	PET	nonhuman primates	–	brain uptake	~2 SUV
c1cnc2c(c1)ccc1cccnc12	MCF7	cell growth	–	–	IC50	6.1 ± 0.5 µM
COc1ccc(NC(=O)[C@@H]2C[C@H](C)CC[C@H]2C(C)C)cc1	TRPM8 human	–	–	–	EC50	0.192 µM

For quick reference, copied from above (mixed results):
SMILES	tested on	test	system	setting	measurement	result
CNC(=O)Nc1ccc2c(c1)C1(CC2)OC(=O)N(CC(=O)N(Cc2ccc(F)cc2)[C@@H](C)C(F)(F)F)C1=O (single isomer, unassigned)	EP300 and CREBBP	cell-based	–	–	IC50	> 10 µM
CC(C(=O)O)c1ccc(-c2ccccc2)c(F)c1 (stereo not drawn)	CYP2C9	substrate	–	–	Km	6 to 42 µM
O=C(C1CCCCC1)N1CC(=O)N2CCc3ccccc3[C@H]2C1	TRPM8 human	–	–	–	EC50	~20 µM
COc1ccc(-c2ocnc2C(=O)NCCCc2ccc([18F])nc2)cc1Cl	–	PET	nonhuman primates	–	brain uptake	~2 SUV
c1cnc2c(c1)ccc1cccnc12	MCF7	cell growth	–	–	IC50	6.1 ± 0.5 µM
COc1ccc(NC(=O)[C@@H]2C[C@H](C)CC[C@H]2C(C)C)cc1	TRPM8 human	–	–	–	EC50	0.192 µM
